Experimental data of several laboratories.
Parts stem from different laboratories: compare values within a part only.

Series 1
Target: Histone acetyltransferase KAT6A, winged helix 1, GST fusion (KAT6A, Homo sapiens, UniProt Q92794, residues 1-85)
Method: protein binding microarray
Form: double-stranded DNA, one strand shown
Sample: in vitro
Concentration: not given
Setting: 8-mer, flanks averaged, mean of 2 arrays, mostly near background
Baseline: not given
Reading: higher = stronger binding
Construct (chain): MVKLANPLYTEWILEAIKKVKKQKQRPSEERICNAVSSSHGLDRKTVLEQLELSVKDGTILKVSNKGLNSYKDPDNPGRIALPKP
`TACTCCCA` gave an E-score of -0.0908.
`GCATACTA` has an E-score of -0.0464.
For `CCAATCAA`, the E-score was -0.121.
The E-score of `AGGTGACG` is reported as 0.0186.
With `ATATCGCC` the E-score was 0.151.
The E-score of `CTCGGAAA` is reported as -0.0804.
The E-score of `GGGCGACA` is reported as 0.3.
The E-score of `GGGCGCAA` is reported as 0.183.
For `ACCGTACT`, the E-score was 0.186.
`AGAAGCCG` has an E-score of 0.297.
For `GATTCGGA`, the E-score was -0.00127.
`ACTCGGTG` gave an E-score of -0.0253.
The E-score of `CTCCTAAA` is reported as -0.271.
`TAAAATAA` gave an E-score of -0.098.
`TATAGAGA` gave an E-score of -0.274.
`CCCTAGTC` has an E-score of -0.227.
`CGCACCAA` gave an E-score of 0.152.
`ATAGCTCA` gave an E-score of 0.0201.
For `CAGTTTAC`, the E-score was -0.0933.
For `ATAGGTCA`, the E-score was -0.19.
For `CTCGATTC`, the E-score was 0.0165.
`GACGACAC` has an E-score of 0.0105.
With `ATCTCTCC` the E-score was -0.0226.
For `CCCGGTTC`, the E-score was 0.166.
With `CGAGACCC` the E-score was 0.185.

Series 2
Target: Prothrombin, mature alpha-thrombin (F2, Homo sapiens, UniProt P00734)
Method: aptamer microarray, sandwich
Form: DNA with 2'F-ANA
Sample: in vitro
Concentration: 200 nM
Setting: whole 15-mer aptamer, many near background
Together with: Cy3 exosite-II aptamer, 400 nM
Reading: higher = stronger binding
Sequence: GGTTGGTGTGGTTGG
`2'F-ANA at 3 5 6 7 8 11 15` — result for “mean fluorescence intensity”: 96.6 a.u.
`2'F-ANA at 3 7 9 11 12` — result for “mean fluorescence intensity”: 1170 a.u.
`2'F-ANA at 1 2 4 6 7 9 12`: “mean fluorescence intensity” 240 a.u.
Under “mean fluorescence intensity”, `2'F-ANA at 1 4 6 7 12 14` is recorded as 55.2 a.u.
`2'F-ANA at 1 2 3 4 5 6 8 9 10 12 14` — result for “mean fluorescence intensity”: 49.1 a.u.
For `2'F-ANA at 3 5 8 9 10 12 14`, “mean fluorescence intensity” read 54 a.u.
`2'F-ANA at 5 6 10 11 13 14` — result for “mean fluorescence intensity”: 67.7 a.u.
`2'F-ANA at 3 6 7 9 13 14` — result for “mean fluorescence intensity”: 491 a.u.
`2'F-ANA at 1 2 3 4 5 6 7 10 12 13 14 15`: “mean fluorescence intensity” 77.9 a.u.
`2'F-ANA at 1 4 5 6 8 9 11 12 13 14` — result for “mean fluorescence intensity”: 56.2 a.u.
For `2'F-ANA at 1 2 3 4 9 12 13 15`, “mean fluorescence intensity” read 247 a.u.
`2'F-ANA at 2 5 7 8 9 13` — result for “mean fluorescence intensity”: 59.7 a.u.
Under “mean fluorescence intensity”, `2'F-ANA at 1 5 6 7 8 9 10 12 14 15` is recorded as 48.5 a.u.
For `2'F-ANA at 2 3 6 8 9 10 11 13 15`, “mean fluorescence intensity” read 244 a.u.
For `2'F-ANA at 1 2 5 7 10 11 13 15`, “mean fluorescence intensity” read 44 a.u.
`2'F-ANA at 2 3 4 5 7 9 12 15`: “mean fluorescence intensity” 197 a.u.
`2'F-ANA at 1 2 4 5 6 7 8 10 11 12 15` — result for “mean fluorescence intensity”: 50.9 a.u.
`2'F-ANA at 1 2 3 4 6 9 10 13 14`: “mean fluorescence intensity” 52.4 a.u.
`2'F-ANA at 2 4 6 7 9 10 12 13`: “mean fluorescence intensity” 80.2 a.u.
`2'F-ANA at 7 8 9 11` — result for “mean fluorescence intensity”: 607 a.u.
Under “mean fluorescence intensity”, `2'F-ANA at 1 6 7 10 13 14` is recorded as 50.4 a.u.
For `2'F-ANA at 2 3 5 6 7 9 10 12 14 15`, “mean fluorescence intensity” read 47.4 a.u.

Series 3
Target: Interferon regulatory factor 5, full length, phosphomimetic (IRF5, Homo sapiens, UniProt Q13568-2, residues 1-514, S451D/S453D/S456D/S462D)
Method: protein-binding microarray
Form: double-stranded DNA, one strand shown
Sample: in vitro
Concentration: 940 nM top
Setting: 60-bp whole probe
Together with: salmon DNA 0.4 mg/ml
Baseline: random background probes
Reading: higher = stronger binding
All sequences stand within: GCCTAGCAC … GTCTTGATTCGCTTGACGCTGCTG
`GACGGTATCGCGTATCGGGACGTGCTA`: “fitted relative affinity” 1.98 z-score.
For `TCAATTGTGGGTCTTGCACTGTGCTAG`, “fitted relative affinity” read -0.52 z-score.
For `GACGGTATCCTTCTCCGGACGTGCTAG`, “fitted relative affinity” read 0.968 z-score.
Under “fitted relative affinity”, `TTAGATTTCGACTATCGGTTAGTGCTA` is recorded as 0.993 z-score.
Under “fitted relative affinity”, `GACGGTTACGACTTTCGGGACGTGCTA` is recorded as 0.922 z-score.
`TTTCTTTTCTTTTCTTTTTTGTGCTAG`: “fitted relative affinity” 3.81 z-score.
For `TCACAACTCGCCTTTTTTACTGTGCTA`, “fitted relative affinity” read 0.951 z-score.
`GACGGTATCGGGATCGGGACGTGCTAG` — result for “fitted relative affinity”: 3.4 z-score.
Under “fitted relative affinity”, `GACGATCTCGGGACTGGAGACGTGCTA` is recorded as -0.312 z-score.
Under “fitted relative affinity”, `TTAGGACTGCGGTTTCGGTTAGTGCTA` is recorded as 5.99 z-score.
Under “fitted relative affinity”, `GACGGTCTCCTTATACTGACGTGCTAG` is recorded as 0.518 z-score.
`GACGGTATCGGGACTGGGGCCGTGCTA` — result for “fitted relative affinity”: 2.89 z-score.
`GACGACATCAGTATCGAGACGTGCTAG`: “fitted relative affinity” 1.84 z-score.
For `TCACCTTTCCAAATACCACTGTGCTAG`, “fitted relative affinity” read 1.52 z-score.
For `TTAAAACTGAGACTGGATTAGTGCTAG`, “fitted relative affinity” read -0.0338 z-score.
`GACGGACTGCGTATCCTGACGTGCTAG` — result for “fitted relative affinity”: -0.574 z-score.
`GACGATTTCAGTTTCGAAACGTGCTAG`: “fitted relative affinity” 5.3 z-score.
`GACGGTCTCCTTTTCCTTACGTGCTAG`: “fitted relative affinity” 0.757 z-score.
`TTCATTATTGCTTCCTCTTTGTGCTAG`: “fitted relative affinity” 1.06 z-score.

Series 4
Target: RING finger protein unkempt homolog, zinc fingers 1-6, GST-SBP tag (UNK, Homo sapiens, UniProt Q9C0B0, residues 30-357)
Sequence of UniProt Q9C0B0 (30-357, looked up): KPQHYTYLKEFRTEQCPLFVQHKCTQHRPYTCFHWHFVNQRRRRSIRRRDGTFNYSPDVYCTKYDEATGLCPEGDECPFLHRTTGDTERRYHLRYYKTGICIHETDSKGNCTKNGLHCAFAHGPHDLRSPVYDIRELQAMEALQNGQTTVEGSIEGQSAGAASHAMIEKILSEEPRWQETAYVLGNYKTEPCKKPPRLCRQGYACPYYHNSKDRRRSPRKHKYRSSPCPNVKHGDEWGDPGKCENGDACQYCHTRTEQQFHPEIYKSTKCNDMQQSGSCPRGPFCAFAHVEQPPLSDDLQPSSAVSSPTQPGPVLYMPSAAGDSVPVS
Method: RNA Bind-n-Seq
Form: RNA
Sample: in vitro
Concentration: not given
Setting: RNA with constant flanks, human-mouse chimeric sites, ends assumed
Baseline: input RNA pool
Reading: higher = stronger binding
All sequences stand within: GGGAGUUCUACAGUCCGACGAUC … CAACAGAGGAUUGAGCAUCA
`GCACUUCUCAAAUACUGGCCAAAGACUCACAGUCCAAAAGAAGUAAUGUUCUUAAAUGAAUUAGAAGAAAUUUUAGAUGUAAUUGAACCAUCAGAAUUUGUGAAGAUCAUGGAACCCCUU` gave a bound/input enrichment of 0.682 ratio.
With `UGGCGCCUGCGCUCCCCACUCGUGUUUGUAUUUUUAUUUUUAUAAGAUACAUGUAUUUACAAUUGAGCUUUUGUUACAUAAUGCUGAAAUGCUACUGCAAUAUUAUGAAAAUGUUUCAAU` the bound/input enrichment was 0.225 ratio.
For `GCUCUUGGGAAUGUAAUCAGCGCCUUGGGGGACAAGAGCAAGAGAGCCACACAUGUCCCUUACAGAGAUUCCAAGCUGACAAGACUCUUGCAGGAUUCCCUUGGGGGUAACAGCCAAACC`, the bound/input enrichment was 0.119 ratio.
For `CAGCUGCGAGGCCGCGGUUUCCCCCUGGGCCUCCCCAGCAGCAGCCAUGGGCAUCAAGUUUUUAGAAGUUAUCAAACCAUUCUGUGCAGUUCUACCAGAAAUUCAGAAACCGGAAAGGAA`, the bound/input enrichment was 0.536 ratio.
For `ACUCUUGACUCUUUCCAUUCUCGUCCCUUCCCUCUUGAUAUUCAAGGCCAUGAAUCCCAAAAUAACAGUCUUAGUGGCUAGCACCCACCCAAACUGAGAAUAAAUCCACCCCAGUGUCUC`, the bound/input enrichment was 0.498 ratio.
The bound/input enrichment of `AACGUGGAGUUGAGUUCCUUGGCCCGGCUUCCCAGCUUAAAUAAACUCCGGAAGUUGGAACUUAGUGACAAUAUAAUUUCUGGAGGCUUGGAAGUCCUGGCAGAGAAAUGUCCAAAUCUU` is reported as 0.146 ratio.
With `CUGGCACUCUAUCAGAUAUAUUAAUUUUUAAAUGUAGAUGUAAUUUUAAAAAUGAAUGGCUAGUUUACACGUUUAACUAGGGUUUUACUAUAUAUGUGUACAUAUGUAUAUAUAUAUAUA` the bound/input enrichment was 7.97 ratio.
`GUAAUGGACGUCAACACUGCUCUACAAGAGGUUCUGAAGACUGCCCUCAUCCACGAUGGCCUAGCACGUGGCAUACGCGAAGCUGCCAAAGCCUUAGACAAGCGCCAAGCCCAUCUGUGU` has a bound/input enrichment of 0.149 ratio.

Repeated from above (series 3):
Under “fitted relative affinity”, `GACGGTTACGACTTTCGGGACGTGCTA` is recorded as 0.922 z-score.
`TTTCTTTTCTTTTCTTTTTTGTGCTAG`: “fitted relative affinity” 3.81 z-score.
For `TCACAACTCGCCTTTTTTACTGTGCTA`, “fitted relative affinity” read 0.951 z-score.
`GACGGTATCGGGATCGGGACGTGCTAG` — result for “fitted relative affinity”: 3.4 z-score.
Under “fitted relative affinity”, `GACGATCTCGGGACTGGAGACGTGCTA` is recorded as -0.312 z-score.
Under “fitted relative affinity”, `TTAGGACTGCGGTTTCGGTTAGTGCTA` is recorded as 5.99 z-score.
Under “fitted relative affinity”, `GACGGTCTCCTTATACTGACGTGCTAG` is recorded as 0.518 z-score.
`GACGGTATCGGGACTGGGGCCGTGCTA` — result for “fitted relative affinity”: 2.89 z-score.
